# Assay results of several laboratories.
# Compare with care: the assays were run in different laboratories. ± gives the spread as reported.
# Matrix: plasma
Compound,assay,test system,conditions,AUC(0-inf)
C=CC(=O)Nc1cc(Nc2nccc(-c3cn(C4CC4)c4ccccc34)n2)c(OC)cc1N(C)CCNC,,healthy Chinese male human,"oral, 110 mg almonertinib, metabolite, [14C] single dose",1120 ± 103 ng·h/mL
CN1CCC[C@]1(C)/C=C/S(=O)(=O)NC(=O)Nc1c2c(cc3c1CCC3)CCC2,,human,"oral, 400 mg single dose",342000 ng·h/mL
CC1C(c2c(F)ccc(F)c2F)CC(N[14C](=O)c2cnc3c(c2)CC2(C3)C(=O)Nc3ncccc32)C(=O)N1CC(F)(F)F (stereo not shown),"liquid scintillation counting, item: total radioactivity",human,"oral, 50 mg, single dose, 14C-labelled",2970 ± 779 ng-eq·h/mL
CC(C)(O)c1ncc([S@](N)(=O)=NC(=O)Nc2c3c(cc4c2CCC4)CCC3)s1,,healthy human fasted,"oral, 100 mg single dose, CT formulation",92000 ng·h/mL
O=C(CCc1ccc(CNC(C(=O)OC2CCCC2)C2CCCCC2)cn1)NO (stereo not shown),,human,"oral, 60 mg single dose, geometric mean",247 ng·h/mL
CCCOc1ccc(S(N)(=O)=O)cc1-c1nc2c(CCC)nn(C)c2c(=O)[nH]1,,healthy male humans,"oral, 200 mg of udenafil, added: dapoxetine 60 mg",4970 ± 2920 ng·h/mL
CCc1c2c(nc3ccc(O)cc13)-c1cc3c(c(=O)n1C2)COC(=O)[C@]3(O)CC,,human patients,"intravenous, 12 mg/m2 of parent drug",136 ng·h/mL
O=C(CCc1ccc(CNC(C(=O)O)C2CCCCC2)cn1)NO (stereo not shown),,healthy male humans,"oral, 50 mg, single dose, geometric mean",363 ng·h/mL
CN[C@@H](CCOc1cccc2ccccc12)c1ccccc1,,healthy male humans,"oral, 60 mg of dapoxetine",223 ± 160 ng·h/mL
[2H]C([2H])(c1ccc(O)c(O)c1)[C@]([2H])(N)C(=O)O,,human,"oral, 150 mg single, geometric LS mean, added: 37.5 mg carbidopa",3470 ng·h/mL
Cn1c(=O)oc2ccc(-c3ccc(CC(C#N)NC(=O)C4CNCCCO4)c(F)c3)cc21 (stereo not shown),,human volunteers,"80 mg single dose, fasted, geometric mean",8740 ng·h/mL
[2H]C([2H])([2H])NC(=O)c1ccc(N2C(=S)N(c3ccc(C#N)c(C(F)(F)F)c3)C(=O)C2(C)C)cc1F,,healthy male human,"oral, 160 mg, fasted, single dose",758000 ng·h/mL
CC(=O)N[C@H](CC(=O)O)C(=O)N[C@H](Cc1c[nH]c2ccccc12)C(=O)N[C@H](Cc1ccccc1)C(=O)N[C@H](CCCCN)C(=O)N[C@H](C)C(=O)N[C@H](Cc1ccccc1)C(=O)N[C@H](Cc1ccc(O)cc1)C(=O)N[C@H](CC(=O)O)C(=O)N[C@H](CCCCN)C(=O)N[C@@H](C(=O)N[C@H](C)C(=O)N[C@H](CCC(=O)O)C(=O)N[C@H](CCCCN)C(=O)N[C@H](Cc1ccccc1)C(=O)N[C@H](CCCCN)C(=O)N[C@H](CCC(=O)O)C(=O)N[C@H](C)C(=O)N[C@H](Cc1ccccc1)C(N)=O)C(C)C,,"human, statin-treated high-risk CHD, female","oral, 500 mg daily, day 13, mean, detected subjects, outlier woman excluded",304 ng·h/mL

# For quick reference, copied from above:
Compound,assay,test system,conditions,AUC(0-inf)
CN[C@@H](CCOc1cccc2ccccc12)c1ccccc1,,healthy male humans,"oral, 60 mg of dapoxetine",223 ± 160 ng·h/mL
[2H]C([2H])(c1ccc(O)c(O)c1)[C@]([2H])(N)C(=O)O,,human,"oral, 150 mg single, geometric LS mean, added: 37.5 mg carbidopa",3470 ng·h/mL
